Measured values of several laboratories.
Protocols differ between the studies behind these lines. ± gives the spread as reported.
Organism: Salmonella typhimurium

SMILES	test	test system	setting	scale	endpoint	value
Fc1ccc(C2=CCNCC2)cc1	genotoxicity, SOS/umu test	TA1535/pSK1002	0.031 mg/mL, 4 h, without S9, full range	–	induction factor	0.8
Cc1cc(C(=O)NC(C)(C)COc2cccc3c2C(N)=NS(=O)(=O)N3)cc(C)n1	Ames test, confirmatory	TA100	3333 µg/plate, with: rat liver S9	reference: solvent control	revertant ratio	0.8
CN(N=O)c1ccc(F)cc1	mutagenicity, Ames plate incorporation	TA1537	150 µg/plate, 3 d, without S9, methanol	–	revertant colonies per plate	9 ± 3
CC(=O)N1CCC(C(=O)N2CCN3C(=O)c4cc(-c5ccccc5)ccc4NC(=O)C3C2)CC1 (stereo not drawn)	–	TA100	5000 µg/plate, without S9	–	revertants per plate	90
CC(C)N(C)N=O	mutagenicity, Ames plate incorporation	TA98	500 µg/plate, 3 d, without S9, methanol	–	revertant colonies per plate	25.3 ± 5
O=[N+]([O-])c1ccc(N2CCN(CCC(O)c3ccc(F)cc3)CC2)c(C(F)(F)F)c1 (stereo not drawn)	SOS/umu test	TA1535/pSK1002	0.125 mg/mL, 4 h, without S9, lower range	–	survival	57%
COCCN(CCOC)N=O	mutagenicity, Ames plate incorporation	TA1537	50 µg/plate, 3 d, without S9, methanol	–	revertant colonies per plate	9.7 ± 3
O=[N+]([O-])c1ccc(N2CCC(NCCC(O)c3ccc(F)c4ccccc34)CC2)c(C(F)(F)F)c1 (stereo not drawn)	SOS/umu test	TA1535/pSK1002	0.008 mg/mL, 4 h, with S9, full range	–	survival	73.5%
COc1cccc(-c2n[nH]c(SCc3ccccn3)n2)c1OC	Ames test, preincubation	TA1537	0.031 mg/plate, with rat liver S9	–	revertant colonies per plate	14
OC(CCN1CC=C(c2ccc(F)cc2)CC1)c1ccc(F)c2ccccc12 (stereo not drawn)	genotoxicity, SOS/umu test	TA1535/pSK1002	0.002 mg/mL, 4 h, with S9, full range	–	induction factor	1
O=NN1CCN(C2CCCC2)CC1	mutagenicity, Ames plate incorporation	TA1535	50 µg/plate, 3 d, without S9, methanol	–	revertant colonies per plate	15 ± 4
N#C[C@@]1(n2ccc(N)nc2=O)O[C@H](CO)[C@@H](O)[C@H]1O	–	TA100	600 nM, without S9, unit not given	reference: control	viability	106

Repeated from above:
SMILES	test	test system	setting	scale	endpoint	value
O=NN1CCN(C2CCCC2)CC1	mutagenicity, Ames plate incorporation	TA1535	50 µg/plate, 3 d, without S9, methanol	–	revertant colonies per plate	15 ± 4
